Measurements gathered from unrelated publications.
Each line is one published result; not all experiments were run side by side. Numbers after ± are the reported error.
Sample: plasma

`C1=C/COCc2cc(ccc2OCCN2CCCC2)Nc2nccc(n2)-c2cccc(c2)COC/1`: “apparent volume of distribution” 19 % decrease (Sprague-Dawley rats, male; oral, dose not given, with: voriconazole; relative to: vehicle control).
For `COc1cc2nccc(Oc3ccc(NC(=O)NC4CC4)c(Cl)c3)c2cc1C(N)=O`, “apparent volume Vz/F” read 11.4 ± 4.03 L/kg (UPLC-MS/MS; Sprague-Dawley rat, male; oral, 10 mg/kg, without azole co-treatment).
For `CCCCOCCOc1ccc(-c2ccc3c(c2)/C=C(/C(=O)Nc2ccc([S@@+]([O-])Cc4cncn4CCC)cc2)CCCN3CC(C)C)cc1`, “apparent clearance CL/F” read 25.8 L/h (moderate hepatic impairment patients; 150 mg, day 1, single dose, geometric mean).
`O=c1oc2c(O)c(O)cc3c(=O)oc4c(O)c(O)cc1c4c23` — result for “apparent oral clearance”: 33.4 ± 3.1 L/h (rat; oral, 500 mg/kg extract).
For `Cc1nc(-c2cnc(NC(C)C)n(C)c2=O)ccc1Oc1ccnc(-c2cnn(C)c2)c1`, the apparent clearance was 0.667 mL/min/kg (Sprague-Dawley rat, male; oral, 10 mg/kg).
For `O=C(O)c1cc(O)c(O)c(O)c1`, “apparent oral clearance” read 144 ± 18.2 L/h (rat; oral, 1000 mg/kg extract).
For `N=C(N)NCCNC(=O)C1(Nc2ccccc2)CCN(Cc2ccccc2)CC1`, “apparent volume of distribution” read 0.3 L (Sprague-Dawley rats, both sexes; oral, 50 mg/kg, mean of both sexes).
The apparent clearance of `N#Cc1ccc(Nc2nc(N)cc(Oc3c(F)cc(-c4ccc(C#N)cc4)cc3F)n2)cc1` is reported as 815 ± 106 mL/min/kg (Sprague-Dawley rat; oral, 5 mg/kg).

For quick reference, copied from above:
The apparent clearance of `N#Cc1ccc(Nc2nc(N)cc(Oc3c(F)cc(-c4ccc(C#N)cc4)cc3F)n2)cc1` is reported as 815 ± 106 mL/min/kg (Sprague-Dawley rat; oral, 5 mg/kg).
